Results of several laboratories.
Every numbered part comes from another study and shows a few of its results, in no order.
Chain of UniProt P00519 (whole entry, unmodified, looked up): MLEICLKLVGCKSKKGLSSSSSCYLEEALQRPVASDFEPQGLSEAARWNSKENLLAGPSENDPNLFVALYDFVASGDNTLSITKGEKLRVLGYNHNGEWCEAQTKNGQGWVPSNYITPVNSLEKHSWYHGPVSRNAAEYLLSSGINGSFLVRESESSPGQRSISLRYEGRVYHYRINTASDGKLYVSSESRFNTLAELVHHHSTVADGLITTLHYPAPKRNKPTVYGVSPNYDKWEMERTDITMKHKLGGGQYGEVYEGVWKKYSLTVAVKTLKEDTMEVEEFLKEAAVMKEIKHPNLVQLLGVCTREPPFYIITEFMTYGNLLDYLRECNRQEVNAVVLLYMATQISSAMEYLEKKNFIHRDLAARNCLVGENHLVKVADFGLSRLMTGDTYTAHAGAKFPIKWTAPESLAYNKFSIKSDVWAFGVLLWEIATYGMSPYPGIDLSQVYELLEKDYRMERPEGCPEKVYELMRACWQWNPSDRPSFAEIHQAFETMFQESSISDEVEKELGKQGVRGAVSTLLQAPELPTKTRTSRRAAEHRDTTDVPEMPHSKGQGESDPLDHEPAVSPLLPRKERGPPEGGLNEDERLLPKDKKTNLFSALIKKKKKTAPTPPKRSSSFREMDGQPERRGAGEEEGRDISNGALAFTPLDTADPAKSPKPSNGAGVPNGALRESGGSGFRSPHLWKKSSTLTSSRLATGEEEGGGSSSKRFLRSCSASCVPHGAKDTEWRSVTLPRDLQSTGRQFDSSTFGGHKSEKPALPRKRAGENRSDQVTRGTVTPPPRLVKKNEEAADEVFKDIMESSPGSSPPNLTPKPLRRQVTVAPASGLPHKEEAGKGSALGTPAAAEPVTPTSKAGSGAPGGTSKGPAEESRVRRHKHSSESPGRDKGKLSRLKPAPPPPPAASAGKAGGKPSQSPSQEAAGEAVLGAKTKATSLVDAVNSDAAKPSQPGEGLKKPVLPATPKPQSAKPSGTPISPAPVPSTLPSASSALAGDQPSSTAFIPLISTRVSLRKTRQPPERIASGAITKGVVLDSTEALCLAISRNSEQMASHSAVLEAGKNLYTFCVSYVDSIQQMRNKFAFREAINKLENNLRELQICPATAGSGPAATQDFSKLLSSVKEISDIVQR
Chain of UniProt P35626 (whole entry, looked up): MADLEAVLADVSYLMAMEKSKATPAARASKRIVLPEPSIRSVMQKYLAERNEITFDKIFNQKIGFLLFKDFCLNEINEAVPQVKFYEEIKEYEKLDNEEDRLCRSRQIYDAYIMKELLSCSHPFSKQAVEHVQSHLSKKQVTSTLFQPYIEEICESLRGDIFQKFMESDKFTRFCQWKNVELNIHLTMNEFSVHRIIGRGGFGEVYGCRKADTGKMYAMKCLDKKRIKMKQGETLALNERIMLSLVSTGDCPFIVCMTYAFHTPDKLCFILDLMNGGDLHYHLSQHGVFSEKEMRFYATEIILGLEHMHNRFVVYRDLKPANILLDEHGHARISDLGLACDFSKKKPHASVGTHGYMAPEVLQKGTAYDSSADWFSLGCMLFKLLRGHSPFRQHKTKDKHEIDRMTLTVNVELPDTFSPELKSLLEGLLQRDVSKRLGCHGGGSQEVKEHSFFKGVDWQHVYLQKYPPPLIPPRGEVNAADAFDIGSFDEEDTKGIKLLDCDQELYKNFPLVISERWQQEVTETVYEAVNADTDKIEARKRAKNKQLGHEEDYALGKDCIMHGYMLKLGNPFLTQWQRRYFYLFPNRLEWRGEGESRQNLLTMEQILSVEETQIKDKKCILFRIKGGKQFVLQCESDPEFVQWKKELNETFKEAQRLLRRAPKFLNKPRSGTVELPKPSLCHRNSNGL
Chain of UniProt P32298 (whole entry, looked up): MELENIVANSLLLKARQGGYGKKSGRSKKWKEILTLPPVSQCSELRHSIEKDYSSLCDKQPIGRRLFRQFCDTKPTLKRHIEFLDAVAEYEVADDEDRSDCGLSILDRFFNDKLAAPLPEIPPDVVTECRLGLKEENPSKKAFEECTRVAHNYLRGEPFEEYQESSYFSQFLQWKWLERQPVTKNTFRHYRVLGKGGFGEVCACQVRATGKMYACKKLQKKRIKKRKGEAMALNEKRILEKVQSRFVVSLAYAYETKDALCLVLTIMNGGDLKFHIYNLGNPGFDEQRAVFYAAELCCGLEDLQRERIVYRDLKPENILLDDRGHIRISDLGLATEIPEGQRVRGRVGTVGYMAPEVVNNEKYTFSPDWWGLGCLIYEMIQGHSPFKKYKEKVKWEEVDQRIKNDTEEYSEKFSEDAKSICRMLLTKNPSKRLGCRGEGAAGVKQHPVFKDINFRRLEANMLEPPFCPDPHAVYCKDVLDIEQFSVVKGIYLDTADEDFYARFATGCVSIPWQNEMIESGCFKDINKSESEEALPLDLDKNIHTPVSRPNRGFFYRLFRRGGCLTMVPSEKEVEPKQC
Chain of UniProt Q08881 (whole entry, looked up): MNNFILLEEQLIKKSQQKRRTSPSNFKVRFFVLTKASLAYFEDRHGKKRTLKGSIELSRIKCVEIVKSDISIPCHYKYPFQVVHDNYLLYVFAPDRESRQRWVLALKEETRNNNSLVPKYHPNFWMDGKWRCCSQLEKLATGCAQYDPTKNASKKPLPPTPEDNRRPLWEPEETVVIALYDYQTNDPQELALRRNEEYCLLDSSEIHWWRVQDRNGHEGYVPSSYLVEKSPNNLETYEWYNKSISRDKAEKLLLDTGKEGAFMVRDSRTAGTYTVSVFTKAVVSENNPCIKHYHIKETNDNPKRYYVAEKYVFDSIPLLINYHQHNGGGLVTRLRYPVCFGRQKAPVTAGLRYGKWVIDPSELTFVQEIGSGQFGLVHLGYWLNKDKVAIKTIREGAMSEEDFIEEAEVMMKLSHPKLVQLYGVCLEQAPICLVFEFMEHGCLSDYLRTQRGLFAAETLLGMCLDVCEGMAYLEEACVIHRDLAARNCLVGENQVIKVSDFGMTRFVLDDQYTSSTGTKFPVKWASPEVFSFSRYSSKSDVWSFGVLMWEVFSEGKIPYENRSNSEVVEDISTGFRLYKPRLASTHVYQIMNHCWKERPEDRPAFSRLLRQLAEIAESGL
Chain of UniProt Q8N5S9 (whole entry, looked up): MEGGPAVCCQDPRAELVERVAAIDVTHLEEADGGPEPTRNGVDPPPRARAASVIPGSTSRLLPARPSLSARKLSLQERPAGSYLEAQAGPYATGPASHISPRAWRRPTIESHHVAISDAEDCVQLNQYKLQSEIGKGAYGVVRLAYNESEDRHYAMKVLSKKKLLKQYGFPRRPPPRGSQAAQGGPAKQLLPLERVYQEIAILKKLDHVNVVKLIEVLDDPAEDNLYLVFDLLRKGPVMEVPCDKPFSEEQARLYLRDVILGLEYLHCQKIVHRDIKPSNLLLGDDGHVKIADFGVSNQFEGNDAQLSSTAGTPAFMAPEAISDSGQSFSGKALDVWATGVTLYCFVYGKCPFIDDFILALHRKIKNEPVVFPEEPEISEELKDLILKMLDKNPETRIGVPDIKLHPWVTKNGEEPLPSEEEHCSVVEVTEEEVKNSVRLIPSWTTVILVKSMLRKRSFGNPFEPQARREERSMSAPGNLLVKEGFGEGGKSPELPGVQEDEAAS
Chain of UniProt O00506 (whole entry, looked up): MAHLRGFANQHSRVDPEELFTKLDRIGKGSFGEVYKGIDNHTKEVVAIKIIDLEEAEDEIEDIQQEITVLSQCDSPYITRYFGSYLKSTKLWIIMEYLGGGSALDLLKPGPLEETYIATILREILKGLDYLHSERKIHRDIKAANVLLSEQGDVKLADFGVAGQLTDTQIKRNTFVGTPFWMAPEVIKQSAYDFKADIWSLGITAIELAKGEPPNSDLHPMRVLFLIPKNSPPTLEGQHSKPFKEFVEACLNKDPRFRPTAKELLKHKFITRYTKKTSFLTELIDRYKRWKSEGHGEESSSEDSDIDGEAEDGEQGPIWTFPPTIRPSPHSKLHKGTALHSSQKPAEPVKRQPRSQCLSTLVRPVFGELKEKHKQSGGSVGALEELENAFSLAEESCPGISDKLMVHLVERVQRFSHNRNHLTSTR

Block 1 — effect on: cell-free assay; technique: competition with immobilised ligand; concentration: 1 µM; endpoint: remaining binding
SMILES: CNC(=O)Nc1ccc2c(c1)[C@@]1(CC2)OC(=O)N(CC(=O)N(Cc2ccc(F)cc2)[C@@H](C)C(F)(F)F)C1=O
OXSR1 (Homo sapiens, UniProt O95747): 65%
AKT3 (Homo sapiens, UniProt Q9Y243): 94%
Ribosomal protein S6 kinase alpha-5, N-terminal kinase domain (RPS6KA5, Homo sapiens, UniProt O75582): 74%
MAP4K4 (Homo sapiens, UniProt O95819): 100%
STK26 (Homo sapiens, UniProt Q9P289): 100%
Tyrosine-protein kinase ABL1, phosphorylated (ABL1, Homo sapiens, UniProt P00519, F317L): 78%
PIK3CA (Homo sapiens, UniProt P42336): 28%
GRK4 (Homo sapiens, UniProt P32298): 100%
GRK3 (Homo sapiens, UniProt P35626): 100%
ITK (Homo sapiens, UniProt Q08881): 92%
MINK1 (Homo sapiens, UniProt Q8N4C8): 78%
STK25 (Homo sapiens, UniProt O00506): 100%
EGFR (Homo sapiens, UniProt P00533): 100%
PIK3CG (Homo sapiens, UniProt P48736): 64%
CAMKK1 (Homo sapiens, UniProt Q8N5S9): 100%

Block 2 — technique: protein-binding microarray; molecule type: hairpin DNA; medium: in vitro; concentration: not given; reference: not given; reading: higher = stronger binding; endpoint: median fluorescence
Target: Cyclic AMP-dependent transcription factor ATF-1, full length (ATF1, Homo sapiens, UniProt P18846, residues 1-271)
Notes: whole hairpin DNA, median over replicate spots
Target sequence (chain): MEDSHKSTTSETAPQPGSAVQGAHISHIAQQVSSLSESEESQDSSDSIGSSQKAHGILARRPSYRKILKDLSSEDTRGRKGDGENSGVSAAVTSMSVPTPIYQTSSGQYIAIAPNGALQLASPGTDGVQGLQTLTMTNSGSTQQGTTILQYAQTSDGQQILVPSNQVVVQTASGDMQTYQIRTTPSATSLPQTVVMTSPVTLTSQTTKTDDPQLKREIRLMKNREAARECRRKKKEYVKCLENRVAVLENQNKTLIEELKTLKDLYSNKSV
GAGGCCCGCTGACGTCAGCCTCCTGGCTGACGTCAGCGGGCCTCACACTC: 13000 a.u.
GAGGCCGACGACGTCGCGCCTCCTGGCGCGACGTCGTCGGCCTCACACTC (5mC at 9 15 29 35): 4710 a.u.
GAGGCCGGCTGACGTCGGCCTCCTGGCCGACGTCAGCCGGCCTCACACTC (5mC at 16): 4930 a.u.
GAGGCCGACCGCGTCGTGCCTCCTGGCACGACGCGGTCGGCCTCACACTC (5mC at 9 10 15 29 34): 4620 a.u.
GAGGCCGTCGACGTCGTGCCTCCTGGCACGACGTCGACGGCCTCACACTC (5mC at 9 15 29 35): 4160 a.u.
GAGGCCGACGCGGTCGTGCCTCCTGGCACGACCGCGTCGGCCTCACACTC (5mC at 9 11 15 29 33 35): 3410 a.u.
GAGGCCGGCTGACGCCAGCCTCCTGGCTGGCGTCAGCCGGCCTCACACTC: 3780 a.u.
GAGGCCGGCTGACTTCAGCCTCCTGGCTGAAGTCAGCCGGCCTCACACTC: 3060 a.u.

Block 3 — host: mouse; medium: microsomes or S9; concentration: 2 µM; time: 0.5 h; endpoint: remaining compound
c1ccc(-c2nnc(-c3cc4ccccc4o3)o2)nc1: 1.21%
c1ccc2c(-c3cn4c5ccccc5n(CCN5CCCCC5)c4n3)cccc2c1: 1.35%
COc1ccc(Cl)cc1S(=O)(=O)NCCn1c(-c2ccncc2)nc2ccccc21: 5.5%
CCCc1c(C(=O)NC2CC2)nnn1-c1ccc(NC(=O)CC(F)(F)F)cc1: 51.9%

Block 4 — technique: universal PBM; molecule type: double-stranded DNA, one strand shown; medium: in vitro; concentration: 600 nM; reading: higher = stronger binding; endpoint: E-score
Target: Sal-like protein 4, full length isoform A (SALL4, Homo sapiens, UniProt Q9UJQ4, residues 1-1053)
Chain of UniProt Q9UJQ4 (whole entry, looked up): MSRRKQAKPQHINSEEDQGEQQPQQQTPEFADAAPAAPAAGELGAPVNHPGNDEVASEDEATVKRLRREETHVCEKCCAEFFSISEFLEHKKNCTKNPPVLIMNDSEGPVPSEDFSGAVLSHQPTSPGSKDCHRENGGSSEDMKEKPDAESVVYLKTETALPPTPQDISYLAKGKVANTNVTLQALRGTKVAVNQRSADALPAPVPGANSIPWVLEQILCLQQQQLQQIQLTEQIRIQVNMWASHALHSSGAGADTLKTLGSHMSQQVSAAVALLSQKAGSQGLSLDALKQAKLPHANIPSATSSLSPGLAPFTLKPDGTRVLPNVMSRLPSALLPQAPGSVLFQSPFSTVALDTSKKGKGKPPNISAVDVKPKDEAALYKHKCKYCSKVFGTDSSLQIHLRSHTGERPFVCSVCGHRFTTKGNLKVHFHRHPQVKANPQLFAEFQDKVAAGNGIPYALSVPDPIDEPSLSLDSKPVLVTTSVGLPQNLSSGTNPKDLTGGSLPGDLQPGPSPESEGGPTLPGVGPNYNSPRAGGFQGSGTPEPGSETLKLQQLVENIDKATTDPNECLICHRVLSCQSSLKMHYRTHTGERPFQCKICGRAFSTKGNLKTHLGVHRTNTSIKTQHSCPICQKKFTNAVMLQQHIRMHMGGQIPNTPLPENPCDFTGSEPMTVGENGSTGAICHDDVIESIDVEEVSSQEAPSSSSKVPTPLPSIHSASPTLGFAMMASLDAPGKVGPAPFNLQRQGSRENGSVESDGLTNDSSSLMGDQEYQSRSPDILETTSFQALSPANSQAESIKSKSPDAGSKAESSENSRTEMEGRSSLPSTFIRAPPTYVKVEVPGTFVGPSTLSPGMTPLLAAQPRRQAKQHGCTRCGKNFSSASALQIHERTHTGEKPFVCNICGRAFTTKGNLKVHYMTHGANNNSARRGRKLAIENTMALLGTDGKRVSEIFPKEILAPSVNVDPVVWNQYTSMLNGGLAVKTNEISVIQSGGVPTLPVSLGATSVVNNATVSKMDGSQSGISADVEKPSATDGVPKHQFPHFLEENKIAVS
Notes: 8-mer, flanks averaged, mean of replicates
AACGTCTA: 0.137
CCTATCTA: 0.0712
AGAGATTC: 0.0962
CCCCACTC: -0.103
AAAATAGT: 0.254
GGACTTAC: -0.0436
CCTAAGAG: -0.186
CCTCAGAA: 0.0384

Other studies, line by line
O=C(Nc1cccnc1)N1CCC(Cc2cccc(Oc3ccc(C(F)(F)F)cn3)c2)CC1  nuclear SOX9 intensity (mouse MPNST tumor cells; high-content immunofluorescence imaging, item: nuclear SOX9; 10 µM, 12 h, mean of 2 replicates; reference: DMSO control, higher = more nuclear SOX9): 141 % of DMSO

Repeated from above (block 1):
STK26 (Homo sapiens, UniProt Q9P289): 100%
EGFR (Homo sapiens, UniProt P00533): 100%
STK25 (Homo sapiens, UniProt O00506): 100%
MINK1 (Homo sapiens, UniProt Q8N4C8): 78%
Ribosomal protein S6 kinase alpha-5, N-terminal kinase domain (RPS6KA5, Homo sapiens, UniProt O75582): 74%
Tyrosine-protein kinase ABL1, phosphorylated (ABL1, Homo sapiens, UniProt P00519, F317L): 78%
